Assay results from different studies.
Converted amounts (≈) assume the structure as drawn.

Under cell growth, `O=C(Nc1ccc(C(F)(F)F)cc1Cl)c1cc(Cl)ccc1O` is recorded as “decreased” (DU-145 (AR-negative); concentration not given, 3 days, dose-dependent).
`CC1=CC(C)(C)N=C(Nc2nc(C)c3cc(C)cc(C)c3n2)N1`: “NADH level increase” 40.1% (activated PBMC; 1 µM, 0.5 h).
`COc1ccc(C(=O)n2c(C)c(Cc3ccccc3O[C@@H](C)C(=O)O)c3cc(OC(F)(F)F)ccc32)cc1`: mRNA level “increased” (3T3-L1 preadipocytes; qRT-PCR, refers to: aP2; concentration not given).
`COC(=O)CC[C@@H](NC(=O)[C@@H](Cc1ccc(OP(=O)(O)O)cc1)NC(=O)[C@@H](Cc1ccccc1)NC(=O)[C@@H](Cc1ccccc1)NC(=O)Cc1ccc2ccccc2c1)C(=O)OC` has an IC90 of 8.8 mg/L (≈ 9.99 µM) (SAOS-2; cell growth or viability, MTT).
Under “cells in G2/M phase”, `O=C1OCC2=C1C(c1cccc(Br)c1)C1=C(N2)C(=O)c2ccccc2C1=O` (stereo not shown) is recorded as 91.7% (SK-LU-1 cells; PI flow cytometry; 0.32 µM, 24 h).
`O=C1c2c(O)cc(O)cc2-c2c(-c3ccc(O)cc3)oc3cc(O)cc1c23`: “downregulated protein count” 245 (LCC2 control shRNA; label-free MS proteomics; 10 µM).
With `CC/C=C\C/C=C\C/C=C\C/C=C\C/C=C\C/C=C\CCC(=O)Nc1ccn(C2OC(CO)C(O)C2(F)F)c(=O)n1` (stereo not shown) the TGI was 11.7 µM (CAKI-1; NCI60 screen).
`N=C(N/N=C/c1ccc(Cl)cc1)N/N=C/c1ccc(Cl)cc1` has a selectivity ratio of 0.8 (PANC-1; crystal violet; 72 h; reference: IC50 hTERT-HPNE over IC50 PANC-1).
`CC(Cc1ccc(Cl)cc1)=C(c1ccc(Cl)cc1)c1ccc(OCCN(C)C)cc1` has a GI50 of 4.54 µM (NCI-H23; cell growth or viability, SRB).
`COc1cc(CNC(=O)C[C@H](C)CCC=C(C)C)ccc1OCc1cn(-c2ccc(F)cc2)nn1` has a growth percent of 85% (SK-OV-3 ovarian cancer cells; SRB; 10 µM, 48 h).
For `CC(=O)OC[C@H]1O[C@@H](Sc2sc(C(=O)c3ccc(Br)cc3)c(N)c2-c2nc3ccccc3s2)[C@H](OC(C)=O)[C@@H](OC(C)=O)[C@@H]1OC(C)=O`, the growth was 81.7% (HOP-92; SRB; 10 µM, 48 h; reference: untreated).
With `COc1cc(CNC(=O)C[C@H](C)CCC=C(C)C)ccc1OCc1cn(-c2ccc(Cl)c(Cl)c2)nn1` the growth percent was 38.2% (SN12C; SRB; 10 µM, 48 h).
`COc1ccc(C2=NN(C3=NC(=O)C(=Cc4ccc(O)cc4)S3)C(c3ccc(F)cc3)C2)cc1` (stereo not shown) — result for “cells in %G0-G1 phase”: 32.6% (T47D; PI flow cytometry; concentration not given, 24 h).
`COc1cc(CNC(=O)C[C@H](C)CCC=C(C)C)ccc1OCc1cn(-c2ccc(Cl)cc2Cl)nn1` gave a growth percent of 95.2% (NCI-H322M; SRB; 10 µM, 48 h).
`CC(C)c1cccc(C(C)C)c1-n1ccn(-c2c(C(C)C)cccc2C(C)C)c1=[Se].[Cl][Ag]` has a resistance factor of 0.5 (A2780 ADR; MTT; reference: A2780 ADR over A2780).
With `COc1cc(CNC(=O)C[C@H](C)CCC=C(C)C)ccc1OCc1cn(-c2ccc(Br)cc2)nn1` the growth percent was 60.1% (NCI-H23; SRB; 10 µM, 48 h).
Under “minimum effective concentration”, `C[C@H](CS)C(=O)N1CCC[C@H]1C(=O)O` is recorded as > 100 µM (hiPSC cardiac tissues 3D; active force; 15 min per concentration, paced at 1 Hz serum-free).
For `COc1cc(CNC(=O)C[C@H](C)CCC=C(C)C)ccc1OCc1cn(-c2ccc(C#N)cc2)nn1`, the growth percent was 64.5% (NCI-H23; SRB; 10 µM, 48 h).
Under “depolarised mitochondria cells”, `CC(=O)Oc1ccccc1C(=O)[O][Pt]([NH2])([NH2])([Cl])([Cl])[O]C(=O)CCCc1ccccc1` is recorded as 30 to 40% (PSN1; 1 µM, 24 h).

A few entries again:
`CC(Cc1ccc(Cl)cc1)=C(c1ccc(Cl)cc1)c1ccc(OCCN(C)C)cc1` has a GI50 of 4.54 µM (NCI-H23; cell growth or viability, SRB).
`COc1cc(CNC(=O)C[C@H](C)CCC=C(C)C)ccc1OCc1cn(-c2ccc(F)cc2)nn1` has a growth percent of 85% (SK-OV-3 ovarian cancer cells; SRB; 10 µM, 48 h).
